Measurements from different studies.
Every numbered part comes from another study and shows a few of its results, in no order. “And” joins repeats or separate records; there may be more than shown.
UniProt Q86Z02, sequence (whole entry, looked up): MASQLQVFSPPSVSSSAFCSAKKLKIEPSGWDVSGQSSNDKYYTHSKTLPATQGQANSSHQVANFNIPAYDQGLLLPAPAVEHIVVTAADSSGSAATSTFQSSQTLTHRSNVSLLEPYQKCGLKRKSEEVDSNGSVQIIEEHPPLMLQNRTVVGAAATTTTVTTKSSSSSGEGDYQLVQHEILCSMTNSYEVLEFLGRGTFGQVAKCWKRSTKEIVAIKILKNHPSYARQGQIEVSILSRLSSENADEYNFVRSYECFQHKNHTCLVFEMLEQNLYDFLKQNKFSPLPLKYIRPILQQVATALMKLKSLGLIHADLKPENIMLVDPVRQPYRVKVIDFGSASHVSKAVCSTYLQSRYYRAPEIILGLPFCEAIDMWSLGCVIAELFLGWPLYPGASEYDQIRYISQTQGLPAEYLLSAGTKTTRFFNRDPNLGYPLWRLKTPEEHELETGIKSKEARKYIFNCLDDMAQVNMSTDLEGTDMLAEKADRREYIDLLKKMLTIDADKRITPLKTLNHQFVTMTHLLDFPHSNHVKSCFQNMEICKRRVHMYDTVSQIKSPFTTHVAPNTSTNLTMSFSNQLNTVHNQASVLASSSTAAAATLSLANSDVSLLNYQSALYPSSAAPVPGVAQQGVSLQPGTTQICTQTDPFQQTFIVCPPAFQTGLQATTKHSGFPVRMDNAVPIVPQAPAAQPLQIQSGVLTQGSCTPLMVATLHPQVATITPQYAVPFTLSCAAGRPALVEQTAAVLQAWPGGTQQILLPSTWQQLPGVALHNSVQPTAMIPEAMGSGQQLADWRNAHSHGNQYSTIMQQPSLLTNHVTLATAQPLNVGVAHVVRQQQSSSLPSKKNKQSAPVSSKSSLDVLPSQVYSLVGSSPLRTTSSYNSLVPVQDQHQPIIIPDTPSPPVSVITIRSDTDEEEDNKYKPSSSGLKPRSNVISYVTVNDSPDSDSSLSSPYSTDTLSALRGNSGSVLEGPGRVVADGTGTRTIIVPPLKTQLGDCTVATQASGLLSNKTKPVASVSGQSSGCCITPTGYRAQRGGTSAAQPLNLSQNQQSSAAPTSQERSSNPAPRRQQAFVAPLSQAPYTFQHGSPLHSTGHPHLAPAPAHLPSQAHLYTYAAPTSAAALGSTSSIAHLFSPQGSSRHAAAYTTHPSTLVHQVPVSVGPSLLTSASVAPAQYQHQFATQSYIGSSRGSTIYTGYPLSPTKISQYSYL
UniProt Q9Y6R4, sequence (whole entry, looked up): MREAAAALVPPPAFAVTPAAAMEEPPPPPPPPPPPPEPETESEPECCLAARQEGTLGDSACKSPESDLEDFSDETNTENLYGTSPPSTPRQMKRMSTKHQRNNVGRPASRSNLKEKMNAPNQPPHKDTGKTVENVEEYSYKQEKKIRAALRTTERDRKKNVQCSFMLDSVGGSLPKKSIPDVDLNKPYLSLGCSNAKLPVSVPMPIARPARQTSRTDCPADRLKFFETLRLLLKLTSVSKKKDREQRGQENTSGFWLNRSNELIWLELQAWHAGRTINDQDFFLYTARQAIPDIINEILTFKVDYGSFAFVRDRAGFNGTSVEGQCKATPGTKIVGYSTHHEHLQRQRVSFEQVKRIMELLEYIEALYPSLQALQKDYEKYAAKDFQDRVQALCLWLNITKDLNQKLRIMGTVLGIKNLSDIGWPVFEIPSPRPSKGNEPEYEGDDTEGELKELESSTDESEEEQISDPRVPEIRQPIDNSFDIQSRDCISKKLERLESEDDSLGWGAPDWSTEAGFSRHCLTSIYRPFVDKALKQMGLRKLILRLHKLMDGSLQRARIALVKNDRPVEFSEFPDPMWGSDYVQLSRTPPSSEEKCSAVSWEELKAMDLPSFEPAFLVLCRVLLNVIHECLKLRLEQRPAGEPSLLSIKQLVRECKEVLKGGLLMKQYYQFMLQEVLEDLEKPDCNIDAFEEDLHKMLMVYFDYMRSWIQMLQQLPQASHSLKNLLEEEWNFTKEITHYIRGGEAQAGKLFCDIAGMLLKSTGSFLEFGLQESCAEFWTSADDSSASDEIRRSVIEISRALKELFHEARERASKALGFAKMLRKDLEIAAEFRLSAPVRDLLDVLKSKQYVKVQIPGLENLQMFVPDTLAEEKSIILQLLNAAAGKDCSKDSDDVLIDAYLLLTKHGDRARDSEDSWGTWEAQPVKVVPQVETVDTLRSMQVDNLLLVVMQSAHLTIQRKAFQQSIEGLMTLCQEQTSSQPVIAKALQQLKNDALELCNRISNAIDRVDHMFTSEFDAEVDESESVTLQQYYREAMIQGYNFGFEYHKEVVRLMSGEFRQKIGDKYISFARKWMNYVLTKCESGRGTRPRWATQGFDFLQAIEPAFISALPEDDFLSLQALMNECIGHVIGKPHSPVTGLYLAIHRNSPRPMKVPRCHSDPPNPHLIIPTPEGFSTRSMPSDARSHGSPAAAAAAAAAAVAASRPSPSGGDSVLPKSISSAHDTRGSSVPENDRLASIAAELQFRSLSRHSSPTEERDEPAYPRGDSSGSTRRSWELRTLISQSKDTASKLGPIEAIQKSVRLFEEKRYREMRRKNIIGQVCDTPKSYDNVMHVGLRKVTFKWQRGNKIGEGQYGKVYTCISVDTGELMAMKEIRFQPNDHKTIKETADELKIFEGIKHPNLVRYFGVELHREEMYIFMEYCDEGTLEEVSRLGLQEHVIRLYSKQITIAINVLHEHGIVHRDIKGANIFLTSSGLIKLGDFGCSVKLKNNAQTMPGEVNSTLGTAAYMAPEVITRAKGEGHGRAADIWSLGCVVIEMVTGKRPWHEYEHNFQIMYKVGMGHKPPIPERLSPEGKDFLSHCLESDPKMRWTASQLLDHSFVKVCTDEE
UniProt O43293, sequence (whole entry, looked up): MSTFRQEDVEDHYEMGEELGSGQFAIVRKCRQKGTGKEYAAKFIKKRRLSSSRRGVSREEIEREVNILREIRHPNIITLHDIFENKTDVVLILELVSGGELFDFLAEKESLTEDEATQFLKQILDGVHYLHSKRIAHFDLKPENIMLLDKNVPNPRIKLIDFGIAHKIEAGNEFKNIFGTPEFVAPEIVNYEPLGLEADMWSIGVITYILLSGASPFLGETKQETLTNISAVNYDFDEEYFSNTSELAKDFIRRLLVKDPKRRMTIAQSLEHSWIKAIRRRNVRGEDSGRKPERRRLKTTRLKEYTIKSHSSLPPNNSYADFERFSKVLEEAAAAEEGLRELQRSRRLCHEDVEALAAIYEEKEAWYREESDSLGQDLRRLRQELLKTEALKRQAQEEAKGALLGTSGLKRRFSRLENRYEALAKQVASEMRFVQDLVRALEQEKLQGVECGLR
UniProt Q9P286, sequence (whole entry, looked up): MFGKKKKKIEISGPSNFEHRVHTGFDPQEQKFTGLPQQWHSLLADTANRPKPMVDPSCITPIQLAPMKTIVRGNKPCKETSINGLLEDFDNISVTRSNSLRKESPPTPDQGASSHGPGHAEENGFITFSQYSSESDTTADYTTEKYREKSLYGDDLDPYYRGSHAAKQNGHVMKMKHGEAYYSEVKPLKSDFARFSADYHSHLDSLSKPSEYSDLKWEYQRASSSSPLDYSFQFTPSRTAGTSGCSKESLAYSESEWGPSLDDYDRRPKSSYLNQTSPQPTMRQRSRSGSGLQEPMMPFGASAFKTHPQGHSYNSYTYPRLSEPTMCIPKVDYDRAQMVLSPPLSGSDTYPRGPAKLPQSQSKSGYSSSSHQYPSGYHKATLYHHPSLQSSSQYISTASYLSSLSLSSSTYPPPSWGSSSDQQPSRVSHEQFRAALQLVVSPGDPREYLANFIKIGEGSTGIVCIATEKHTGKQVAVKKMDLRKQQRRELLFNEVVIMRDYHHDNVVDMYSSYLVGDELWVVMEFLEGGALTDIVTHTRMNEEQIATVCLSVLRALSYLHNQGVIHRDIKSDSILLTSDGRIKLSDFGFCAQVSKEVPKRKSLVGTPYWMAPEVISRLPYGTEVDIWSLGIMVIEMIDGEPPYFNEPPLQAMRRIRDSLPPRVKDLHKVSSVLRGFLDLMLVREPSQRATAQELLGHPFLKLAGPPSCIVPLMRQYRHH
UniProt Q06418, sequence (whole entry, looked up): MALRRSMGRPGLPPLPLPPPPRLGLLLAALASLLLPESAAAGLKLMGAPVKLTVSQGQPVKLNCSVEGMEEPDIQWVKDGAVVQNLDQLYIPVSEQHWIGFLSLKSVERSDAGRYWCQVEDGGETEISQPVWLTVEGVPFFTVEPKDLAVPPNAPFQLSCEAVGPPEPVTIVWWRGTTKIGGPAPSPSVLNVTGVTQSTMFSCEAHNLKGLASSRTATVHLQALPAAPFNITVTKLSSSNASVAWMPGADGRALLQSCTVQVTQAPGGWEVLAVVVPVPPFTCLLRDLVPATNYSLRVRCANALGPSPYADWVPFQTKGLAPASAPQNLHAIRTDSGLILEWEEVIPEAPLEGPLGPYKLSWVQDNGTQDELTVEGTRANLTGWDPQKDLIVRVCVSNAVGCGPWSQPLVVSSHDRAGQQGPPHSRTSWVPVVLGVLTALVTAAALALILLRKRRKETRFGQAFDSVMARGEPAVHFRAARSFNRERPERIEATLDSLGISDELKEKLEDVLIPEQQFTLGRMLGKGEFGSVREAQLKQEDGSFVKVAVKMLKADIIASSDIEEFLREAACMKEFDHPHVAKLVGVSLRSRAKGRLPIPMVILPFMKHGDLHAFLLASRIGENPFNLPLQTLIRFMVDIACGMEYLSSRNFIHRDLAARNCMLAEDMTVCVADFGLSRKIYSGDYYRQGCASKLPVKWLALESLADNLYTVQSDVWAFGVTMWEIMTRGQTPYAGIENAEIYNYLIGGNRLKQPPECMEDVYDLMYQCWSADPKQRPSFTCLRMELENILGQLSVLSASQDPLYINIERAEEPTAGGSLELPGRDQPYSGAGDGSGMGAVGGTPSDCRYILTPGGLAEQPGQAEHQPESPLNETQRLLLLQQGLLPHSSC

Set 1
SMILES: O=C(Nc1ccccc1)Nc1cccc(Oc2ccc3nccn3n2)c1
Concentration: 1 µM
The remaining binding was 100% (BLK (Homo sapiens, UniProt P51451); binding, competition with immobilised ligand).
For PKMYT1 (Homo sapiens, UniProt Q99640); binding, competition with immobilised ligand: remaining binding read 100%.
CDC42BPA (Homo sapiens, UniProt Q5VT25); binding, competition with immobilised ligand — remaining binding: 99%.
The remaining binding was 100% (EPHA5 (Homo sapiens, UniProt P54756); binding, competition with immobilised ligand).
KIT (Homo sapiens, UniProt P10721, V559D/V654A); binding — remaining binding: 18%.
For Aurora kinase A (AURKA, Homo sapiens, UniProt O14965); binding, competition with immobilised ligand: remaining binding read 100%.
It gave 96% for remaining binding (MAP3K4 (Homo sapiens, UniProt Q9Y6R4); cell-free binding).
It gave 100% for remaining binding (NTRK2 (Homo sapiens, UniProt Q16620); binding, competition with immobilised ligand).
For MAP2K2 (Homo sapiens, UniProt P36507); binding, competition with immobilised ligand: remaining binding read 100%.
DCLK1 (Homo sapiens, UniProt O15075); binding, competition with immobilised ligand — remaining binding: 100%.
BRSK1 (Homo sapiens, UniProt Q8TDC3); binding — remaining binding: 100%.
Tyrosine-protein kinase ABL1, phosphorylated (ABL1, Homo sapiens, UniProt P00519, E255K); binding, competition with immobilised ligand — remaining binding: 93%.
For HIPK1 (Homo sapiens, UniProt Q86Z02); binding, competition with immobilised ligand: remaining binding read 100%.
It gave 77% for remaining binding (TNK1 (Homo sapiens, UniProt Q13470); binding, competition with immobilised ligand).
The remaining binding was 100% (PDPK1 (Homo sapiens, UniProt O15530); binding).

Set 2
SMILES: Cc1nc(C)c(C=[N+]([O-])C(C)(C)C)nc1C
Method: footprint test
Species: MPTP-induced Parkinson's disease mouse model
10 mg/kg — “corridor crossing time”: 7.11 s and 6.26 s and 4.7 s and 5.6 s and 6 s and 3.97 s and 6.37 s and 6.88 s.
For 90 mg/kg: “corridor crossing time” read 6.19 s and 7.14 s and 4.73 s and 5.23 s and 5.31 s and 5.49 s and 5.16 s and 5.55 s.
For 10 mg/kg, trial 1: “corridor crossing time” read 5.12 s and 8.22 s and 6.13 s and 4.85 s and 5.71 s and 6.35 s and 8.95 s.
30 mg/kg, trial 3 — “corridor crossing time”: 5.28 s and 5.67 s and 7.53 s and 4.29 s and 5.3 s and 5.08 s and 5.91 s and 6.18 s.
It gave 7.31 s and 7.79 s and 6.22 s and 4.19 s and 4.64 s and 8.09 s and 5.88 s for “corridor crossing time” (10 mg/kg, trial 3).

Set 3
Structure (SMILES): CN(C1COC1)C(C)(C)/C=C(\C#N)C(=O)N1CCC[C@H]1Cn1nc(-c2ccc(Oc3ccccc3)cc2F)c2c(N)ncnc21
Read-out: kinase activity
It gave -3% for inhibition (DAPK3 (Homo sapiens, UniProt O43293); 1 µM).
It gave 2% for inhibition (PIK3CD (Homo sapiens, UniProt O00329); 0.1 µM).
For CSF1R (Homo sapiens, UniProt P07333); 0.1 µM: inhibition read 0%.
The inhibition was 6% (IRAK1 (Homo sapiens, UniProt P51617); 0.1 µM).
For PKN1 (Homo sapiens, UniProt Q16512); 0.1 µM: inhibition read 3%.
It gave 14% for inhibition (PDGFRB (Homo sapiens, UniProt P09619); 1 µM).
The inhibition was -8% (PAK5 (Homo sapiens, UniProt Q9P286); 1 µM).
It gave 2% for inhibition (TYRO3 (Homo sapiens, UniProt Q06418); 0.1 µM).
INSRR (Homo sapiens, UniProt P14616); 1 µM — inhibition: 0%.
RPS6KA6 (Homo sapiens, UniProt Q9UK32); 0.1 µM — inhibition: 3%.
The inhibition was -9% (IKBKE (Homo sapiens, UniProt Q14164); 0.1 µM).
It gave -3% for inhibition (EPHB4 (Homo sapiens, UniProt P54760); 1 µM).
The inhibition was 16% (SGK2 (Homo sapiens, UniProt Q9HBY8); 0.1 µM).
It gave -4% for inhibition (MINK1 (Homo sapiens, UniProt Q8N4C8); 1 µM).
For SLK (Homo sapiens, UniProt Q9H2G2); 0.1 µM: inhibition read 5%.
For DYRK3 (Homo sapiens, UniProt O43781); 0.1 µM: inhibition read 2%.
It gave 2% for inhibition (HIPK1 (Homo sapiens, UniProt Q86Z02); 0.1 µM).
For Mitogen-activated protein kinase kinase kinase 7, with TAB1 (MAP3K7, Homo sapiens, UniProt O43318); 0.1 µM: inhibition read 5%.
It gave 5% for inhibition (STK3 (Homo sapiens, UniProt Q13188); 1 µM).
For CLK3 (Homo sapiens, UniProt P49761); 1 µM: inhibition read -3%.
PRKCG (Homo sapiens, UniProt P05129); 1 µM — inhibition: 0%.

Mixed results
`CCN1/C(=C/C=C2\CCCC(/C=C/C3=[N+](CC)c4ccccc4C3(C)C)=C2NCCCCN2CCC(Nc3nc4ccccc4n3Cc3ccc(F)cc3)CC2)C(C)(C)c2ccccc21`: “fluorescence quantum yield” 2.5% (PBS; 10 µM; reference: Cy5).

Excerpt of the above (set 2):
10 mg/kg — “corridor crossing time”: 7.11 s and 6.26 s and 4.7 s and 5.6 s and 6 s and 3.97 s and 6.37 s and 6.88 s.
For 90 mg/kg: “corridor crossing time” read 6.19 s and 7.14 s and 4.73 s and 5.23 s and 5.31 s and 5.49 s and 5.16 s and 5.55 s.
For 10 mg/kg, trial 1: “corridor crossing time” read 5.12 s and 8.22 s and 6.13 s and 4.85 s and 5.71 s and 6.35 s and 8.95 s.
